Assay results of several laboratories.
Compare with care: the assays were run in different laboratories. ± gives the spread as reported.

SMILES | assay | test system | conditions | Tmax
N#Cc1cc(NC(=O)[C@H]2c3ccccc3C(=O)N(CC(F)(F)F)[C@@H]2c2cccnc2)ccc1F |  | human, plasma | oral, 150 mg, median | 1.5 h
C#C[C@]1(CO)O[C@@H](n2cnc3c(N)nc(F)nc32)C[C@@H]1O |  | human, plasma | oral | 0.25 to 1 h
COc1cc(-c2cnc3cc(OCCN4CCOCC4)ccn23)cc2c1C(=O)N(CC(F)(F)F)CC2 | LC-MS | human, plasma | oral, 350 mg, day 5, together with: methotrexate 7.5 mg | 0.5 h
C[C@H]1[C@H](OC(=O)CCC(=O)O)O[C@@H]2O[C@@]3(C)CC[C@H]4[C@H](C)CC[C@@H]1[C@@]24OO3 |  | human, both sexes, plasma | oral, dose not given, fixed-dose combination | 0.26 h
CN[C@@H](C)C(=O)N[C@H]1CN(S(=O)(=O)c2cccc(S(=O)(=O)N3CC[C@H]4CC[C@@H](C(=O)NC(c5ccccc5)c5ccccc5)N4C(=O)[C@@H](NC(=O)[C@H](C)NC)C3)c2)CC[C@H]2CC[C@@H](C(=O)NC(c3ccccc3)c3ccccc3)N2C1=O |  | human, plasma | intravenous infusion, 20 mg, cycle 1 day 15 | 0.47 h
CC(F)(F)c1cc(F)ccc1-c1sc2cc(O)ccc2c1Oc1ccc(/C=C/C(=O)O)cc1 |  | human, serum | oral, 200 mg once daily, cycle 1 day 28, fasted, median | 2.2 h
O=C(O)C[C@H](O)C[C@H](O)/C=C/c1c(C2CC2)nc2ccccc2c1-c1ccc(F)cc1 |  | OATP1B1/1B3 humanized mouse, plasma | oral, 5 mg/kg, together with: silymarin 500 mg/kg oral | 0.5 h
C#C[C@]1(O)CC[C@H]2[C@@H]3CCC4=CC(=NO)CC[C@@H]4[C@H]3CC[C@@]21CC (mixture of isomers) |  | human |  | 3 h
COc1cc(N2CCC(N3CCN(C)CC3)CC2)ccc1Nc1ncnc(Nc2ccccc2S(=O)(=O)C(C)C)n1 | LC-MS/MS | human, dose escalation, plasma | oral, 25 mg, day 1 | 2.95 h
COc1nnc2ccc(N3CCC(c4ccc(OCCN5CCN(C)C(=O)[C@H]5C)cc4)CC3)nn12 |  | human, plasma | oral, 10 mg once daily, multiple dose, monotherapy | 1 h
CN(C(=O)C(C)(C)c1cc(C(F)(F)F)cc(C(F)(F)F)c1)c1cnc(N2C[C@H]3COCCN3C[C@H]2CO)cc1-c1ccc(F)cc1[14CH3] | LC-MS/MS | human, plasma | oral, 120 mg | 1.5 h
CC1(COc2ccc3c(c2)ncn3-c2ccc3cccc(N4CCC(N)CC4)c3n2)COC1 |  | human patients, recurrent/progressive HGG or DIPG, serum | oral, 100 mg/m^2, day 1, median | 4 h
Cn1cncc1[C@@](N)(c1ccc(Cl)cc1)c1ccc2c(c1)c(-c1cccc(Cl)c1)cc(=O)n2C |  | human, plasma | oral, 300 mg/m^2, median, initial cohort, first cycle dose | 5 h
Cc1ncnc2c1ccn2[C@@H]1C[C@H](Oc2cc(C(F)F)c(F)c3c2CNCC3)[C@@H](O)[C@H]1O |  | human, plasma | 6 mg once daily, multiple dose, median | 1 h
NC(=O)c1[nH]cnc1N |  | human patients, plasma | IV infusion over 1 h, 1000 mg/m^2 DTIC, cycle 2 day 1, staggered with co-drug | 1.95 h
N[C@](CO)(CCc1ccc(Sc2cccc(OCc3ccccc3)c2)cc1Cl)COP(=O)(O)O |  | human, fed, blood | 3 mg, median, together with: itraconazole 200 mg once daily | 24 h
COc1ccc2[nH]c([S@+]([O-])Cc3ncc(C)c(OC)c3C)nc2c1 |  | human, dried blood spots | oral, 10 mg omeprazole | 2 h
CCCCCCCOc1ccc(CCC(N)(CO)CO)cc1C(F)(F)F.Cl |  | healthy human males, plasma | 0.5 mg, day 21, median | 6 h
NC[C@@]1(CC(=O)O)[C@@H]2CC[C@H]3C[C@@H]2[C@@H]1C3 |  | human, moderate renal impairment, plasma | oral, 20 mg single dose, median | 1.5 h
CC(C)NC(=O)COc1cccc(-c2nc(Nc3ccc4[nH]ncc4c3)c3ccccc3n2)c1 |  | human, male, fed, plasma | oral, 200 mg, day 3, median | ~2 h
Cc1noc(C)c1-c1cc(C(O)(c2ccccn2)c2ccccn2)c2nc(C3CC3)[nH]c2c1 |  | human, fasted, plasma | oral, 6 mg, cycle 1 day 15, together with: enzalutamide once daily | 0.5 h
CCNCCCNC/C=C\CNCCCNCC | LC-MS/MS | human cancer patients, plasma | intravenous infusion 60 min, 50 mg, median, cycle 1 | 0.5 h
Cc1cc(C)c(CNC(=O)c2cc(Cl)c3c(c2C)O[C@@](C)([C@H]2CC[C@H](N(C)C)CC2)O3)c(=O)[nH]1 |  | human, NHL patients, plasma | oral, 200 mg/day, cycle 1 day 1, once daily | 3.87 h
CN(C)C(=O)c1cc2cnc(Nc3ccc(N4CCNCC4)cn3)nc2n1C1CCCC1 |  | human, severe renal impairment, plasma | oral, 400 mg, median | 2 h
Cc1cn(C(=O)c2c(-c3c(Cl)cc(Cl)cc3Cl)noc2C(C)(C)F)c2cccc(/C=C/C(=O)O)c12 |  | human patients | 700 mg bid, cycle 1 day 1 | 4 h
C[C@H](Oc1ccc(Br)cc1-c1ccon1)C(=O)O | LC-MS/MS, non-compartmental | human, plasma | 400 mg once daily, day 10, multiple ascending dose, median | 2.5 h
COc1ccccc1OCC(O)CN1CCN(CC(=O)Nc2c(C)cccc2C)CC1 (centres unmarked) |  | human | oral, 12 mg/kg/day | 1 h

SMILES | assay | test system | conditions | Tmax
Cn1cncc1-c1c(F)cncc1NC(=O)c1c(N)nn2cc(F)cnc12 |  | human patients, plasma | oral, 90 mg | 1.7 h
CC(C)[C@H](N)C(=O)NCCCS(=O)(=O)O | median | human, plasma | oral, 256.5 mg twice daily days 2-7, day 7, fed, capsule | 1.02 h
COc1ccc2c3c1O[C@H]1C[C@@H](OC(=O)c4ccccc4)C=C[C@@]31CCN(C)C2 |  | human, plasma | intranasal, 22 mg single dose | 0.5 h
CCn1cc(C(=O)N2CCOCC2)c(=O)c2cc(NC3Cc4ccccc4C3)cnc21 |  | human, fed | oral suspension, 300 mg single dose, median | 6 h
C#C[C@]1(COP(=O)(O)OP(=O)(O)O)O[C@@H](n2cnc3c(N)nc(F)nc32)C[C@@H]1O | item: islatravir triphosphate | human, PBMC | oral, 5 mg single dose | 18 h
CC1=C(c2cccc(O)c2)[C@H](c2ccc(OCCN3CC(CF)C3)cc2)Oc2ccc(O)cc21 |  | human, plasma | oral, 1000 mg once daily, steady state median | 3 h
C=CC(=O)NC1CCN(c2ncc3ncnc(Nc4ccc(Oc5ccc6c(c5)ncn6C)c(C)c4)c3n2)CC1 |  | human male | oral, 60 mg single dose, median | 2 h
COc1ncc(-c2nc3c(n2C(C)C)[C@H](c2ccc(Cl)cc2)N(c2cc(Cl)cn(C)c2=O)C3=O)c(OC)n1 | LC-MS/MS, noncompartmental | human, plasma | oral, 2 mg, C1D1, low-dose, median | 3.4 h
N#CCC1CCN(c2nc(Nc3ccc(N4CCC(O)CC4)cc3)c3c(=O)[nH]ncc3n2)CC1 | LC-MS/MS | human, plasma | oral, 40 mg once daily, day 15, median | 2 h
Cc1cc(-c2nccc3c2ccn3CC(=O)Nc2ccc(-c3cnccn3)cn2)ccn1 |  | human, plasma | oral, 20 mg once daily, day 16, median | 1 h
Cn1ncnc1[C@H]1c2n[nH]c(=O)c3cc(F)cc(c23)N[C@@H]1c1ccc(F)cc1 |  | human patients, plasma | oral, 600 µg/m2 twice daily day 1, day 5, dose level DL6, median, together with: temozolomide 55 mg/m2 daily days 2-6 | 1 h
CN(CC#N)C(=O)C[C@H](Nc1nc2ccccc2[nH]1)c1cccc(C(F)(F)F)c1 |  | human | intravenous infusion, 6 mg/kg, 1 mg/mL formulation | 0.43 ± 0.09 h
CC(C)(C(=O)NC1C2CC3CC1CC(C(N)=O)(C3)C2)N1CCN(c2ccc(C(F)(F)F)cn2)CC1 (centres unmarked) |  | human, plasma | 2 mg once daily, 5 days, median | 2.6 h
COc1cc(C(=O)NC2CCN(C)CC2)c(F)cc1Nc1ncc(C(F)(F)F)c(Oc2cccc3c2C(=O)N(C)C3)n1 |  | human patients, plasma | oral, 10 mg single dose, median | 1.07 h
NC(=S)NN=Cc1ncccc1N |  | human, plasma | oral, 150 mg, geometric mean | 1.5 h
CC(=O)N1CCC(Nc2cc(C(=O)NC[C@H](O)CN3CCc4ccccc4C3)ncn2)CC1 |  | human, plasma | oral, 300 mg, week 3 day 1, median | 2.95 h
Cc1nc(-c2ccc(OCC(C)C)c(C#N)c2)sc1C(=O)O |  | human, plasma | oral, 40 mg once daily, together with: verinurad 5 mg | 3 h
C#C[C@]1(COP(=O)(O)O)O[C@@H](n2cnc3c(N)nc(F)nc32)C[C@@H]1O | item: islatravir triphosphate | human, PBMC | oral, 15 mg single dose | 6.03 h
COc1cc(C(=O)NC2CCN(C)CC2)c(F)cc1Nc1ncc(C(F)(F)F)c(Oc2cccc3c2C(=O)N(C)C3)n1 |  | human, Japanese, plasma | oral, 200 mg single dose, median | 2.95 h
Cc1cc(C)c(CNC(=O)c2cc(Cl)c3c(c2C)O[C@@](C)([C@H]2CC[C@H](N(C)C)CC2)O3)c(=O)[nH]1 | median | healthy male humans, plasma | oral, 25 mg, day 1, alone, itraconazole group | 3.5 h
COc1ncnn2ccc(-c3cnc4nc(C)n(Cc5nnc([C@@H](C)F)o5)c4c3)c12 |  | human, plasma | oral, 105 mg, cycle 1 day 1 | 3 h
CN(C)CCCNC(=O)/C(=C/CCCCC(=O)NO)COc1cccc2ccccc12 |  | human | iv, 187.5 mg/m2, day 1, single dose, mean | 0.08 h
Cc1cc(-c2nnc(N)nc2-c2ccc(F)cc2)cc(Cl)n1 |  | human patients, plasma | oral, 75 mg nanosuspension, single dose, median | 0.5 h
C[C@H](NC(=O)/C(C#N)=C/c1cccc(Br)n1)c1ccccc1 | LC-MS/MS | human, plasma | oral, 4 mg/kg, cycle 1 day 1 | 0.5 h
Cn1c(=O)oc2ccc(-c3ccc(C[C@@H](C#N)NC(=O)[C@@H]4CNCCCO4)cc3)cc21 |  | human, moderate renal impairment, plasma | oral, 25 mg single dose, median | 1 h
C[C@@H](N)c1cc(Cl)ccc1Cn1c(=S)[nH]c(=O)c2[nH]ccc21 |  | human, both sexes, matched healthy controls, plasma | oral, 2.5 mg single dose, median | 1.75 h

For quick reference, copied from above:
SMILES | assay | test system | conditions | Tmax
CCNCCCNC/C=C\CNCCCNCC | LC-MS/MS | human cancer patients, plasma | intravenous infusion 60 min, 50 mg, median, cycle 1 | 0.5 h
CN(CC#N)C(=O)C[C@H](Nc1nc2ccccc2[nH]1)c1cccc(C(F)(F)F)c1 |  | human | intravenous infusion, 6 mg/kg, 1 mg/mL formulation | 0.43 ± 0.09 h
CN[C@@H](C)C(=O)N[C@H]1CN(S(=O)(=O)c2cccc(S(=O)(=O)N3CC[C@H]4CC[C@@H](C(=O)NC(c5ccccc5)c5ccccc5)N4C(=O)[C@@H](NC(=O)[C@H](C)NC)C3)c2)CC[C@H]2CC[C@@H](C(=O)NC(c3ccccc3)c3ccccc3)N2C1=O |  | human, plasma | intravenous infusion, 20 mg, cycle 1 day 15 | 0.47 h
COc1ccccc1OCC(O)CN1CCN(CC(=O)Nc2c(C)cccc2C)CC1 (centres unmarked) |  | human | oral, 12 mg/kg/day | 1 h
Cn1c(=O)oc2ccc(-c3ccc(C[C@@H](C#N)NC(=O)[C@@H]4CNCCCO4)cc3)cc21 |  | human, moderate renal impairment, plasma | oral, 25 mg single dose, median | 1 h
